Measurements of several laboratories.
Parts stem from different laboratories: compare values within a part only.

Series 1
Target: Histone acetyltransferase KAT6A, winged helix 1, GST fusion (KAT6A, Homo sapiens, UniProt Q92794, residues 1-85)
Method: protein binding microarray
Molecule type: double-stranded DNA, one strand shown
Sample: in vitro
Tested at: not given
Setting: 8-mer, flanks averaged, mean of 2 arrays, mostly near background
Baseline: not given
Reading: higher = stronger binding
Construct (chain): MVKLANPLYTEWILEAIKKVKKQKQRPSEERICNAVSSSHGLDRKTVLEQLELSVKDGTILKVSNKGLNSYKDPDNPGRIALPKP
| Sequence | E-score |
| --- | --- |
| CTTATTAC | 0.0122 |
| AGAGCTCG | 0.00524 |
| ACCTAGTG | -0.19 |
| AAACTTCG | -0.128 |
| CAGTGAAC | -0.177 |
| CACACGCC | 0.11 |
| AAAAGGTC | -0.208 |
| ACGGCGCG | 0.441 |
| CGTTCCCC | 0.163 |
| GCGTAACC | 0.316 |
| ACCCTGGA | -0.168 |
| ACGGGCAT | 0.295 |
| ATTGTCAG | -0.146 |
| AAGTCAGA | -0.205 |
| AACGATCA | -0.221 |
| GTATGCCA | -0.239 |
| TACCGGTA | 0.272 |
| CCCAAGAG | -0.279 |
| GCATACGA | -0.0952 |

Series 2
Target: Ras GTPase-activating protein-binding protein 1, full length (G3BP1, Homo sapiens, UniProt Q13283)
Sequence of UniProt Q13283 (whole entry, looked up): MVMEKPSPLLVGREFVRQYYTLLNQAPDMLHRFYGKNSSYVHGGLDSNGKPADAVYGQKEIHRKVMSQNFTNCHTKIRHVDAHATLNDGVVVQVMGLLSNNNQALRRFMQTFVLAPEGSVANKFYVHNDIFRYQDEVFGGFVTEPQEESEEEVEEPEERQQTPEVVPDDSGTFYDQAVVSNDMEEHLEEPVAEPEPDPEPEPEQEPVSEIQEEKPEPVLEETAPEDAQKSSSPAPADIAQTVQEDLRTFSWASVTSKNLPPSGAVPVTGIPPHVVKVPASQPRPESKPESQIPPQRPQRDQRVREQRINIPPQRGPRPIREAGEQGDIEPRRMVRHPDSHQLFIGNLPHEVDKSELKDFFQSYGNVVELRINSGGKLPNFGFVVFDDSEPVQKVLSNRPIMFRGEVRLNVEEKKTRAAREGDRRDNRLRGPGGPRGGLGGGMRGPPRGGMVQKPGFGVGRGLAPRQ
Method: RNA Bind-n-Seq
Molecule type: RNA
Sample: in vitro
Tested at: 200 nM
Setting: whole 134-nt RNA, ends assumed
Added: 150 mM KCl
Baseline: input library
Reading: higher = stronger binding
All sequences stand within: GGGAGUUCUACAGUCCGACGAUC … UGGAAUUCUCGGGUGUCAAGG
| Sequence | log2 enrichment |
| --- | --- |
| AAGUCCUGUGCUACACAUCGUAUGUACCGAAUCGGGCCCCGGCCCCGGGGCCCCGGAAAGUAUUAUGUUACGCCGUUCGGAUCUGCACUU | -1.62 |
| CCUCAAGUCCUGUGCUACACAUCGUAUGUACCGAAUCGGGCGGGGCGGCGGGGAAAGUAUUAUGUUACGCCGUUCGGAUCUGCACUUCCA | 0.953 |
| UCCUGUGCUACACAUCGUAUGUACCGAAUCGGGGAGGGGAAAAAAAGGGGUUUUUGGGGAAAGUAUUAUGUUACGCCGUUCGGAUCUGCA | 0.729 |
| CAAGUCCUGUGCUACACAUCGUAUGUACCGAAUCGGGAAAGGGUGGGUUUUUGGGAAAGUAUUAUGUUACGCCGUUCGGAUCUGCACUUC | 0.578 |
| CCUCAAGUCCUGUGCUACACAUCGUAUGUACCGAAUCGGGAGGGAGGGUGGGAAAGUAUUAUGUUACGCCGUUCGGAUCUGCACUUCCAG | 1.39 |
| UCCUCAAGUCCUGUGCUACACAUCGUAUGUACCGAAUCGGUUUGGAGGUGGAAAGUAUUAUGUUACGCCGUUCGGAUCUGCACUUCCAGC | -0.88 |
| UGGGAGGUGGAUUUUGUUUAUUUUUUUAACUCAUUUCCAGGGGUGGGAAUUUUUUUUUAAUAUGUGUCAUGAAUAAAGUUGUUUUUGAAA | 0.105 |
| CCUCAAGUCCUGUGCUACACAUCGUAUGUACCGAAUCGGGGUGGUGGUGGGGAAAGUAUUAUGUUACGCCGUUCGGAUCUGCACUUCCAG | 0.842 |
| AAGUCCUGUGCUACACAUCGUAUGUACCGAAUCGGUUUUUUUGGAAAAAAAGGAGGAAAGUAUUAUGUUACGCCGUUCGGAUCUGCACUU | -1.25 |

Series 3
Target: Transcriptional repressor CTCF (CTCF, Homo sapiens, UniProt P49711, residues 1-727, full length assumed)
Sequence of UniProt P49711 (whole entry, looked up): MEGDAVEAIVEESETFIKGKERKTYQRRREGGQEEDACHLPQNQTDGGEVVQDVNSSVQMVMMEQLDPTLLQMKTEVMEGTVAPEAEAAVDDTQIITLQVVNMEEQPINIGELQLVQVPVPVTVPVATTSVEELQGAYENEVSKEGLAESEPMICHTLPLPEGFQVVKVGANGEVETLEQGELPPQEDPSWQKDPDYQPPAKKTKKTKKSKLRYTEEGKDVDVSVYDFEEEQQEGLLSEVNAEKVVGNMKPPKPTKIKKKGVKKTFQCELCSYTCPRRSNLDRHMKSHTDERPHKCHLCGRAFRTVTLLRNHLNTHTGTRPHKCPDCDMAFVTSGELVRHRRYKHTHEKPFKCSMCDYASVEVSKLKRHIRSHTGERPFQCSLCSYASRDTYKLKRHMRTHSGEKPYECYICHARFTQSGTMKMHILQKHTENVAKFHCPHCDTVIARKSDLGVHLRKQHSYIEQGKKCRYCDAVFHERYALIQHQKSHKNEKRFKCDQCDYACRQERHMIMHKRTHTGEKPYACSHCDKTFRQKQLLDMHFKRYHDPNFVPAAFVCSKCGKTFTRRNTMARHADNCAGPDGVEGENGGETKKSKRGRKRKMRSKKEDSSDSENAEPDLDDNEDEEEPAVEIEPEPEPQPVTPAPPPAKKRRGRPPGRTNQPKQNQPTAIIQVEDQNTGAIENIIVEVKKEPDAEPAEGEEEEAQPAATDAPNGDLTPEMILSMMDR
Method: protein-binding microarray
Molecule type: double-stranded DNA, one strand shown
Sample: in vitro
Tested at: not given
Setting: k-mer, scored over probes, only values ≥0.25
Reading: higher = stronger binding
| Sequence | E-score |
| --- | --- |
| AATACATA | 0.268 |
| CATACAAA | 0.277 |
| ACCACACA | 0.278 |
| TAATAGTA | 0.301 |
| AATATAGA | 0.279 |
| GGCGCAAC | 0.286 |
| AAGATAAA | 0.29 |
| TAATTAAA | 0.299 |
| AGATATTA | 0.283 |
| GCGCGTAC | 0.279 |
| TATAATCA | 0.277 |
| ATTTATAA | 0.309 |
| AGTATCTA | 0.284 |
| ATTGTAGG | 0.257 |
| AATATGTG | 0.315 |
| TAAAACTA | 0.306 |
| ACTAATAC | 0.286 |
| AAATAGAT | 0.254 |
| ATTGTTGA | 0.254 |
| TACTATAA | 0.364 |
| AATAATGT | 0.35 |
| GTTGCGCA | 0.312 |
| GCGCGCAA | 0.39 |
| AAAGCGCC | 0.323 |
| AATATTGC | 0.265 |

Series 4
Target: Interferon regulatory factor 7, full length, phosphomimetic (IRF7, Homo sapiens, UniProt Q92985, residues 1-503, S101K/S471D/S472D/S475D/S476D/S477D/S483D/S484D/S487D)
Sequence of UniProt Q92985 (whole entry, unmodified, looked up): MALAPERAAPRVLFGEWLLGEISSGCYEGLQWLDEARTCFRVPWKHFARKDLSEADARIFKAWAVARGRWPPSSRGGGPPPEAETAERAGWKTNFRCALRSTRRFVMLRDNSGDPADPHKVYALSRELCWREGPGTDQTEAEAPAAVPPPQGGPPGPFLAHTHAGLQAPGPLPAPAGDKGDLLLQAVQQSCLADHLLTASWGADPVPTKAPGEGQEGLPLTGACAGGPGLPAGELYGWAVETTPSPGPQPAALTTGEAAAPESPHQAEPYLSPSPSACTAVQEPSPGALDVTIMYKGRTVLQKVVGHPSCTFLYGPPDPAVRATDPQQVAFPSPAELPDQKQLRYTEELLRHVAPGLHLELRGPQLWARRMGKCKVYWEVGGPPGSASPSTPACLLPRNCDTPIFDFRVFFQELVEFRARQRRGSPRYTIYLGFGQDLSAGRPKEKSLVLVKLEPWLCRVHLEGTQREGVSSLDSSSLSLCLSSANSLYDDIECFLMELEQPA
Method: protein-binding microarray
Molecule type: double-stranded DNA, one strand shown
Sample: in vitro
Tested at: 250 nM
Setting: 60-bp whole probe
Added: salmon DNA 0.4 mg/ml
Baseline: random background probes
Reading: higher = stronger binding
All sequences stand within: GCCTAGCAC … GTCTTGATTCGCTTGACGCTGCTG
| Sequence | log fluorescence |
| --- | --- |
| TTAGATCTCACTTTCGATTAGTGCTAG | 3.08 z-score |
| TTAGGTTTCGATTATCGGTTAGTGCTA | 10.4 z-score |
| TACTTTCTATCTCTGTTTTTGTGCTAG | 3.2 z-score |
| TTAGGTCTCCTTAGCCTTTAGTGCTAG | -0.259 z-score |
| GACGATATCGGGTATCGGGACGTGCTA | -0.0116 z-score |
| TTAGGTTTCCTTTTCATTTAGTGCTAG | 5.89 z-score |
| GTAGGTTTCCTTCTCCTTTAGTGCTAG | 1.99 z-score |
| ATAGGTCTCGGTTTCGGTTAGTGCTAG | 11.2 z-score |
| TCACTACTGCATTTTTTACTGTGCTAG | -0.303 z-score |
| GACGATATCTGTATCGAGACGTGCTAG | -0.00325 z-score |
| TTTTTTCTACTTCTGTTTTTGTGCTAG | 4.26 z-score |
| ATTTTTTTTAGTGGATGAAAGTGCTAG | 0.49 z-score |
| AATTTTTTGTATTTTTAGTGGTGCTAG | 0.162 z-score |
| TCAGCTTGGTGTCTCTGACTGTGCTAG | -0.816 z-score |
| TAATTTCCATTTTCTAAATTCGTGCTA | 4.26 z-score |
| GACGATATCAGACTGGTGACGTGCTAG | -0.166 z-score |
| TTAGGACTGGACAATCGGTTAGTGCTA | -0.467 z-score |
| GAAGAAATTTAATAGTCACTGTGCTAG | -0.51 z-score |
| TTAGGACTGGGGACTCGGTTAGTGCTA | 0.135 z-score |

Series 5
Target: PABPC1L2, full length, GST fusion (mouse, UniProt A0ABA7IW68)
Method: RNAcompete
Molecule type: RNA
Sample: in vitro
Tested at: 20 nM
Setting: 7-mer, probes averaged, single round
Baseline: mean of 7-mers
Reading: higher = stronger binding
Residues (chain): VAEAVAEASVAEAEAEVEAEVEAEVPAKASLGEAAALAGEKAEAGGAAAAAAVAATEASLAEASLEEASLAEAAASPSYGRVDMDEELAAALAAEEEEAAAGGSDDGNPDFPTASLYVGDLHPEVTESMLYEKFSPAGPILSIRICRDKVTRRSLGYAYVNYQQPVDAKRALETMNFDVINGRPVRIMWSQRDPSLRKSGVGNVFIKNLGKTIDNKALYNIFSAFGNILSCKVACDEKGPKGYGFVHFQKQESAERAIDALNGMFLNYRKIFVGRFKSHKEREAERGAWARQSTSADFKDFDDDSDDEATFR
| Sequence | 7-mer Z-score |
| --- | --- |
| CGGAGCG | 0.0968 |
| GGAAAAA | 12 |
| CGGACAA | 0.32 |
| CGAACUU | -0.226 |
| UGCGCUU | -0.202 |
| CUGAAUA | -0.0174 |
| UAGCGAC | -0.11 |
| UUACUAU | -0.151 |
| AAGAGUU | 0.0388 |
| UGCUACC | -0.371 |
| GGGAAUG | 0.253 |
| CAGAGUU | -0.228 |
| GAUUAAG | -0.0536 |
| AUGCGAG | 0.0442 |
| GAAAAAG | 12.2 |
| AUAGCGA | -0.101 |
| GGCACUU | -0.0283 |
| ACCUCAG | -0.171 |

Repeated from above (series 1):
| Sequence | E-score |
| --- | --- |
| ACGGGCAT | 0.295 |
| AACGATCA | -0.221 |
| GCATACGA | -0.0952 |
| ACCCTGGA | -0.168 |
| ACCTAGTG | -0.19 |
| CCCAAGAG | -0.279 |
| ACGGCGCG | 0.441 |
| AAAAGGTC | -0.208 |
| CGTTCCCC | 0.163 |
| ATTGTCAG | -0.146 |
